Results of several laboratories.
Parts stem from different laboratories: compare values within a part only. Substitutions count along the parent as printed.

Sample 1 — read-out: peptide-MHC binding; molecule type: peptide; concentration: concentration not given; measurement: binding
Target: HLA class I histocompatibility antigen, A alpha chain, allele A*25:01 (Homo sapiens, UniProt P04439)
RRELSKEKL: inactive
LPEAYQWHI: inactive
YFTFDLTAL: inactive
GHMMVIFRL: inactive
TMNSRYYLV: inactive
FAEGVIAFL: inactive
WASGVPAAT: inactive
KQMEDGHTL: inactive
MFWKLPPWL: inactive
NNIEFNFTY: inactive
LVTMGTGTFGR: inactive
AQSDFMSWV: inactive
TKAGMAQYL: inactive
MTFPLHFRS: inactive
YLAKLFLDH: inactive
FTARIIIFS: inactive
WTGMVDGWY: inactive
KVYWAGIEF: inactive
KVGYFQHGA: inactive
VSANVKGNW: inactive
FELLHFISS: inactive
LAIVTTPLV: inactive
GRYNLVPPK: inactive
VTDTALAYF: inactive
YITDYSNDI: inactive

Sample 2 — target: CCNB1, cyclin fold, Cln2 fusion (human); method: yeast growth competition, sequencing; matrix: yeast; setting: weak parent motif; reference: not given; direction: higher = stronger binding; measurement: normalised enrichment score; starting sequence: viral docking peptide; KKVKRRLFETREL
KKVKRRLFEAREL [T10A]: 0.763
KKVKRRAFETREL [L7A]: 0.428
KKVKRALFETREL [R6A]: 0.635
KKVKARAFETREL [R5A L7A]: 0.482
KKVKRRLAETREL [F8A]: 0.561
KKVKKRLFETREL [R5K]: 0.633
KKVKRRLFETREA [L13A]: 0.247
KAVKRRLFETREL [K2A]: 1.31
KKVKRRLFATREL [E9A]: 0.362
KKVKRRLLETREL [F8L]: 0.374

Sample 3 — method: RNAcompete; molecule type: RNA; matrix: in vitro; concentration: 20 nM; setting: 7-mer, probes averaged, single round; reference: mean of 7-mers; direction: higher = stronger binding; measurement: 7-mer Z-score
Target: PABPC1L2, full length, GST fusion (mouse, UniProt A0ABA7IW68)
Residues (chain): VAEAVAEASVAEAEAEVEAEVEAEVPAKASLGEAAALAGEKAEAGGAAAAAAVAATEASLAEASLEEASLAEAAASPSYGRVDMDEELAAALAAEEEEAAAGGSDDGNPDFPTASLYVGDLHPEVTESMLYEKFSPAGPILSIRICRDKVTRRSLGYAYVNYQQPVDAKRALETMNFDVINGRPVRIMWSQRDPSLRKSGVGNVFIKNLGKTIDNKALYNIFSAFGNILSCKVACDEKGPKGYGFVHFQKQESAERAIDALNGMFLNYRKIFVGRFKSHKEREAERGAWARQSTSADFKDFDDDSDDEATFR
ACAGACU: -0.115
ACGUCAC: -0.228
AAGCCCU: -0.217
GUCAAGU: -0.329
GAGAAGC: -0.0047
GCUAACA: -0.119
GGCACGU: 0.0569
GAGACUA: 0.0768

Sample 4 — method: protein binding microarray; molecule type: double-stranded DNA, one strand shown; matrix: in vitro; concentration: not given; reference: not given; direction: higher = stronger binding; measurement: E-score
Target: Histone acetyltransferase KAT6A, both winged helices, GST fusion (KAT6A, Homo sapiens, UniProt Q92794, residues 1-181)
Setting: 8-mer, flanks averaged, mean of 2 arrays, mostly near background
Construct (chain): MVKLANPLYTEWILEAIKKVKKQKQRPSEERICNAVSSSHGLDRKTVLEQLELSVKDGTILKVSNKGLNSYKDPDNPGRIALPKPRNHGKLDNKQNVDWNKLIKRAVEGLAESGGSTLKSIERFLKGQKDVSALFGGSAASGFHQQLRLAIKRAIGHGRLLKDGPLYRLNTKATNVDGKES
GAAAATTC: 0.0877
CCTAAGGC: -0.0894
ACTACATA: -0.271
AACTTACA: -0.117
GACACGAA: 0.00709
ACACTGAA: -0.124
AAACGATG: 0.0919
AAGCGGAT: 0.159

Some of these lines once more (sample 1):
KVGYFQHGA: inactive
VSANVKGNW: inactive
FELLHFISS: inactive
